Published values gathered from unrelated publications.
A part holds a random share of what one study measured.

Block 1 — technique: RNA Bind-n-Seq; molecule type: RNA; medium: in vitro; concentration: 365 nM; relative to: no-protein control; reading: higher = stronger binding
Target: RNA binding protein fox-1 homolog 2, RRM domain, GST-SBP tag (RBFOX2, Homo sapiens, UniProt O43251-10, residues 100-194)
Notes: natural RNA segment, single round, ends assumed
Constant ends, left off below: GGGAGUUCUACAGUCCGACGAUC … UGGAAUUCUCGGGUGCCAA
Target sequence (chain): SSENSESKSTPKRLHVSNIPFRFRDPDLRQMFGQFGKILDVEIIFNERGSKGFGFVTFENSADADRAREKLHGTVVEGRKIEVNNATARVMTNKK
Strand	RBNS enrichment (R)
UGCCUAGCCCAUCAUCUAUCUAACCGGUCCUUGAUUUAAUAAACACUAUAAAAAGUUCUUUGCUUUACUCAGCCAGUGUCCACUGGCAAUCCCUGGGCUGGGCUCUGGGG	0.527
GAGGGGGAGGGGCUCUUGCUUUAAGUCAGAAGUCUCAAAUGACAUGCUCAUCAAUUAAAGGAAAAAAAAAACCCCACCUCAACCUUCAUAACUGCCCAACAACUACCCCC	0.423
GAGUACCAUAGGAACUUUGUACCAGUUGGAAUUUAAGUGGACUGUUUGCUGCUUUUGUUCGCAUUGGAACGUUGGACAUGCCAUAUGAUACUGGCUUAGUAAUCAAUACC	0.305
AUUAGAAAAGGCUUAUGUUAGCAUAGCUUAAGAGCAACCUCAGAGAUUUGAGCCCUACUAAGUGACUGACCACUGUUUAGAGUGUCUGGUAUCUGAUGUUCAUUUAUUCC	0.359
CUUUCUGGGCAGGCAGGCCAUGGGGCAUGGAGGAGGGUGCAAAGAUAUGGGUUGCUGUCUUCUGGCCUCCAGCUGCAUGGAGGCCGGCCCAGGGUCUAGGGUGUGCACUG	1.43
GGCCCAAACUUGAUUGGAGAAUUUGCAAACUACCGUCGCUCAGCAACACCAAAAAGAGAAAGUCUGGUUAAAACACCAUGAGUCAAAUGUCGGGCCAGCCAACAGUAACA	0.383
AGAACUAUACUAUUUUUCCUAUGGGACAAUGGACUUUCAGGACCUCACUUCAUUUUCAGAGUUAAUGGGAUCCAUGGUGCAAACUCCAUUAGCAGUUUUAUGCUGGCGAU	0.433
AGCGAGUAUUCAGAUCAUACGAGGAGGCGUUCCUCGGUGCAUGACGGUCAGAUGGCCAUUUAUCAGCAUAUUUAUUUGUAUUUUCUCAGCAGAUAGUAAGGUACAACUGU	0.841
CAGCCUGUCGUGUCUCUUUGGACAGACGGACCAUCAGUGUAGAUAAUCAGCAUGCUUGUGCAUUACGUGGAGGUUGGAGGUGUCAUCUUUGUUGGGAUGACUGAUUGGGG	23.1
GAUCAUACAUAUUUUGAAGAACAGACUGACCAAAGCUCACCUGUUUUUUGUGUUAGGUGCUUUGGCUGAACUUGAUUCCAGCCCCCUUUUCCCUUUGGUGUUGUGUAUGU	0.695
AAUUUUGUUCAAAAUCCGAAUAAUAAUAGAUAACAGAAAUAACAGUCUUAAAGGCUGACUGGGAGGCCAUGAACUGUUCACAAGGAGCACGGCUCUGCAGGCGUUGAAUA	0.383
CACCCAAAAGUCAAAAGGUGCCUGUGAGGCAGGGGCGGAGUGAUACAACUUCAAGUGCAUGCUCUCUGCAGCCAGCCCAGCCCAGCUGGUGGGAAGCGUCUGUCCGUUUA	3.06

Block 2 — technique: RNA Bind-n-Seq; molecule type: RNA; medium: in vitro; concentration: not given; notes: RNA with constant flanks, ends assumed; relative to: input RNA pool; reading: higher = stronger binding
Target: RING finger protein unkempt homolog, zinc fingers 1-6, GST-SBP tag (UNK, Homo sapiens, UniProt Q9C0B0, residues 30-357)
Constant ends, left off below: GGGAGUUCUACAGUCCGACGAUC … CAACAGAGGAUUGAGCAUCA
Residues (chain): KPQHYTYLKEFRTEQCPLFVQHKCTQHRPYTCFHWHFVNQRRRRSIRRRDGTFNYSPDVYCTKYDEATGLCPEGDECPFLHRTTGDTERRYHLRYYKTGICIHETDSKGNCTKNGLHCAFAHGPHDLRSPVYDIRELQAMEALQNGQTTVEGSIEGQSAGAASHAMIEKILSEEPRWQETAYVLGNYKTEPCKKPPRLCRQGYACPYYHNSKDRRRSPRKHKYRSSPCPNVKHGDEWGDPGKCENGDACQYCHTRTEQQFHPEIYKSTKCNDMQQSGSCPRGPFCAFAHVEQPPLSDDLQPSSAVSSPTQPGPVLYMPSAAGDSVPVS
Strand	bound/input enrichment
ACCUUUGACCAGGCCACGGGAGGGACCGCGCAGUUUGAAGCACACUCUGAUGCUCAGGCUCCCGUUCUCUUAGAUGUCACACCUGACCAGUCAAUGGUGGAUGAGGGCAUGGCUCGGGAA	0.0792 ratio
UGAGUGAGCAGAUGAUUGAAUAUUGAUGUCAGCAUCCUUGAACACACUCAGAUGAGCAACACCGAGCUUCUGCUUCUAUUUAAAAUGAUGCUGGGUUUGAUUGUGGUCCGAAGCUUUGAA	0.0573 ratio
AAGAGUGCAGAUGACUUUAUAGAUAAGCACAUUGCUGAGCUAAUAUUUUACAUGGAAGAGCUCCGAGCACAUGUCAGGAAGUAUGGGCCUGUCAUGCAGAGGUACUACGUGCAAUACCUC	0.233 ratio
UCAGAACUCAUCUCCACUCGUUUCACAGGCGCCACUGGCAGAGCAUUUCUUUUUAACAAGGCCGUUAACCUGCAGUACAGUGAAGUUCAAGAUCGGGUCAUGCUCACUGGCCGCCACAUG	0.121 ratio
GCUGGAUGAUACCAUAAUGUAUCAAGGAGCGUCCAUGGAUACAAGAUAAGAUGUGUACCUCCGCCGAAUACAGAGCUUUGGUAAUUACAUGAAUAAAAUUAAGAAAAUAGCCAUAUACAA	2.65 ratio
AGGUUACUGAUGCAUCACAUCAGAGAUUGUUUACCAGAGUUGAAAACAAGAAUAAAUGUUCCCGCUGCUCAGUAUCAGUCUCUUCUAAAUAGCUACGGUGAACCCGUGGAUGAUAAAAGU	0.0995 ratio
CUUUCAGUAAGAACGACCCCCUAAAAGAAAACAGGAGGAGAUGCAGCGCUUUAGGCCGCCUCCGCCAGCAGCUUGUGUCCUACUCUGGAAGUUGUAACCUACAGUUUUUCUCACCUGUAA	0.749 ratio
AUUCUCAAUGCCACCCAGGCAGAAAGCAAAGUGUUCUACUUAAAAAUGAAAGGAGACUACUUCCGGUAUCUUUCUGAAGUUGCAUCCGGAGAAAAUAAACAAACCACGGUGUCCAACUCC	0.132 ratio
UGCUUUGAAAAUACCGGAGAGCUCAUUCUCCAGUCCGGCUCUUUCUCCUUCCAGAACUUCACCGAGAUUUUCACCGAUCAAGAGAUCGGGGAGUUACUAAGCACCACCCAUCCUGCCAAC	0.207 ratio
GAUAUCCAAGCUUGCGUGGACCAUGUGAACCUGGUGGUGCAAGAGGAACAUGAGAGGAUUUCCGCCAUUGGUUUAAUUAAUGAAGCCCUGGAUGAAGGUGAUGCCCAAAAGACUCUGCAG	0.251 ratio
GAAGUAGAAGAUCCUGUGGAUUCUGAUGGUGAAGUCCUGGGCUUUGAAAAUCUCGUCUUCCGCAUUUUUGAAUUUGUCCAUGCUCUACUAGAAAAUAGCAAAUUCAAAAGCACUGUUAAG	0.628 ratio

Block 3 — technique: protein-binding microarray; molecule type: double-stranded DNA, one strand shown; medium: in vitro; concentration: 250 nM; notes: 60-bp whole probe; with: salmon DNA 0.4 mg/ml; relative to: random background probes; reading: higher = stronger binding; constant ends, left off below: GCCTAGCAC … GTCTTGATTCGCTTGACGCTGCTG
Target: Interferon regulatory factor 7, full length, phosphomimetic (IRF7, Homo sapiens, UniProt Q92985, residues 1-503, S101K/S471D/S472D/S475D/S476D/S477D/S483D/S484D/S487D)
Target sequence (chain): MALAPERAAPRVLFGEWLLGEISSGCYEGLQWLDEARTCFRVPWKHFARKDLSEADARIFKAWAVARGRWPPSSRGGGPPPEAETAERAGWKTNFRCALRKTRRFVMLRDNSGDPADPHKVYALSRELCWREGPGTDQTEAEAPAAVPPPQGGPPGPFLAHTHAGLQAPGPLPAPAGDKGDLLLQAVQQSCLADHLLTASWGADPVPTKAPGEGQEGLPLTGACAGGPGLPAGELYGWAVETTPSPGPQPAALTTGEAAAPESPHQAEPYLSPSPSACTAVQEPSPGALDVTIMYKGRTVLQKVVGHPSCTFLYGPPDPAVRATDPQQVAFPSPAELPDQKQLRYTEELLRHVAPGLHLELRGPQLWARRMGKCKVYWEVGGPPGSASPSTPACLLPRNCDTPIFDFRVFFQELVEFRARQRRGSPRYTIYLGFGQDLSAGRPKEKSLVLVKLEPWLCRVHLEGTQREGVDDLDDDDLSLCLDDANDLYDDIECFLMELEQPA
Strand	log fluorescence
CTCCATGAACAGGGCTGATGGTGCTAG	-0.187 z-score
GTTAGAATGTCCTTTCTCCATGTGCTA	-0.104 z-score
GACGGTTTCGACTTACGGGACGTGCTA	12.4 z-score
GACGATCACAGACTGGAGACGTGCTAG	-0.381 z-score
TTAGATATAAGTATCGATTAGTGCTAG	0.948 z-score
TTAGGTTTCCTTTCCCTCTAGTGCTAG	4.58 z-score
TTTGGACTGGGGACTGGGTTAGTGCTA	-0.541 z-score
GACGGCATCCTTATCCTGACGTGCTAG	-0.379 z-score
TTCGATTTCAGTCTCGATTAGTGCTAG	2.05 z-score
GACGAACTGAGTTTCGAGAGGTGCTAG	1.68 z-score
GACGGTTTCCTTATACTGACGTGCTAG	2.92 z-score
TTAGGTACCCTTTTCCTTTAGTGCTAG	2.9 z-score
GACGAACTTAGTATCGAGACGTGCTAG	0.268 z-score
TGCTTTCTCTTTCACTACTCGTGCTAG	3.67 z-score
TCAACTCTCTAATTTTGACTGTGCTAG	0.0566 z-score
GACGATCTCAGACTGGCGACGTGCTAG	-0.216 z-score
TCAGCCATATTTATCTGACTGTGCTAG	-0.258 z-score
GACGGTCTCAGTTTCGGGACGTGCTAG	3.54 z-score
GACGGTCTCCAACTGCTGACGTGCTAG	-0.216 z-score
TCACTTATCCAATCAGAACTGTGCTAG	0.433 z-score
TTAGGGCTGGGTTTCGGTTAGTGCTAG	5.64 z-score
AACGGTTTCGGACTGGGGACGTGCTAG	4.26 z-score
GACCGTCTCGGTCTCGGGACGTGCTAG	0.596 z-score

Block 4 — technique: protein binding microarray; molecule type: double-stranded DNA, one strand shown; medium: in vitro; concentration: not given; relative to: not given; reading: higher = stronger binding
Target: Histone acetyltransferase KAT6A, winged helix 1, GST fusion (KAT6A, Homo sapiens, UniProt Q92794, residues 1-85)
Notes: 8-mer, flanks averaged, mean of 2 arrays, mostly near background
Target sequence (chain): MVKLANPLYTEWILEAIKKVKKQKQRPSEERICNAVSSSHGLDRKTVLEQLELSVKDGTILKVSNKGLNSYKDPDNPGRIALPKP
Strand	E-score
AAATCTAC	-0.0884
CCACTGGG	-0.22
CAACACCC	-0.173
GCGTCAGA	-0.0254
GCGTGACC	0.176
AAGATTAG	-0.0481
CGGATAGC	0.155
CCCAGAAC	-0.175
AGAGTCAC	-0.177
GGTTAGAA	-0.0941
CATATTAG	-0.0753
ACCTATCC	-0.112
AGAAACAT	-0.0276
GAGTAAAA	-0.095
CCTAGTCC	-0.025
CATTCCAG	-0.23
ACGTAGGC	-0.0473

Block 5 — technique: Sort-seq; refers to: YFP reporter; medium: E. coli; notes: PhoQ-PhoP variant library; with: 10 µM Mg2+; relative to: high Mg2+ state; reading: higher = stronger signaling
Substance: PhoQ, residues 284 288 289 292 302 303 WVSSAF
target	fold induction
PhoP, residues 12 14 15 18 19 VGHWL (Escherichia coli, UniProt P23836)	1.53
PhoP, residues 12 14 15 18 19 NFFVT (Escherichia coli, UniProt P23836)	10.1
PhoP, residues 12 14 15 18 19 LHHYF (Escherichia coli, UniProt P23836)	3.73

Block 6 — technique: Spec-seq; molecule type: double-stranded DNA, one strand shown; medium: in vitro; concentration: not given; notes: whole probe, mean of replicates; relative to: not given; reading: lower = stronger binding; constant ends, left off below: GAGTCGTCTCGTCAGCAC … CCGTAGAGCACTCAGGTC
Target: Transcription factor SOX-2, HMG box (Sox2, Mus musculus, UniProt P48432, residues 41-119)
Sequence of UniProt P48432 (41-119, looked up): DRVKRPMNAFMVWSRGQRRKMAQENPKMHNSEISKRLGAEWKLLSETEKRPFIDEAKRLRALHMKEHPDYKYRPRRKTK
Strand	relative binding energy [ln ratio]
GTTCGTT	1.12
CATGGAC	-0.0548
CATCCAT	0.46
TGCAGTT	0.439
CATAATA	-1.58
CATTAAG	-0.499
CATTGTG	-1.97
CCGAGTT	1.25
CATACCG	0.319
CTGAGTT	1.25
CATAGGA	-0.558
CATTCCT	0.443
TAATGTT	-0.442
AATGGTT	-2.04
CATAGTG	-0.87
CATTGTC	-2.15

A few entries again (block 2):
Strand	bound/input enrichment
UCAGAACUCAUCUCCACUCGUUUCACAGGCGCCACUGGCAGAGCAUUUCUUUUUAACAAGGCCGUUAACCUGCAGUACAGUGAAGUUCAAGAUCGGGUCAUGCUCACUGGCCGCCACAUG	0.121 ratio
GCUGGAUGAUACCAUAAUGUAUCAAGGAGCGUCCAUGGAUACAAGAUAAGAUGUGUACCUCCGCCGAAUACAGAGCUUUGGUAAUUACAUGAAUAAAAUUAAGAAAAUAGCCAUAUACAA	2.65 ratio
AGGUUACUGAUGCAUCACAUCAGAGAUUGUUUACCAGAGUUGAAAACAAGAAUAAAUGUUCCCGCUGCUCAGUAUCAGUCUCUUCUAAAUAGCUACGGUGAACCCGUGGAUGAUAAAAGU	0.0995 ratio
CUUUCAGUAAGAACGACCCCCUAAAAGAAAACAGGAGGAGAUGCAGCGCUUUAGGCCGCCUCCGCCAGCAGCUUGUGUCCUACUCUGGAAGUUGUAACCUACAGUUUUUCUCACCUGUAA	0.749 ratio
AUUCUCAAUGCCACCCAGGCAGAAAGCAAAGUGUUCUACUUAAAAAUGAAAGGAGACUACUUCCGGUAUCUUUCUGAAGUUGCAUCCGGAGAAAAUAAACAAACCACGGUGUCCAACUCC	0.132 ratio
